# Measurements gathered from unrelated publications.
# Each numbered part is a random draw from the data of one study; scales do not carry over between parts. Changes are numbered by the printed parent chain.

# Series 1
# Target: Sal-like protein 4, full length isoform A (SALL4, Homo sapiens, UniProt Q9UJQ4, residues 1-1053)
# Sequence of UniProt Q9UJQ4 (whole entry, looked up): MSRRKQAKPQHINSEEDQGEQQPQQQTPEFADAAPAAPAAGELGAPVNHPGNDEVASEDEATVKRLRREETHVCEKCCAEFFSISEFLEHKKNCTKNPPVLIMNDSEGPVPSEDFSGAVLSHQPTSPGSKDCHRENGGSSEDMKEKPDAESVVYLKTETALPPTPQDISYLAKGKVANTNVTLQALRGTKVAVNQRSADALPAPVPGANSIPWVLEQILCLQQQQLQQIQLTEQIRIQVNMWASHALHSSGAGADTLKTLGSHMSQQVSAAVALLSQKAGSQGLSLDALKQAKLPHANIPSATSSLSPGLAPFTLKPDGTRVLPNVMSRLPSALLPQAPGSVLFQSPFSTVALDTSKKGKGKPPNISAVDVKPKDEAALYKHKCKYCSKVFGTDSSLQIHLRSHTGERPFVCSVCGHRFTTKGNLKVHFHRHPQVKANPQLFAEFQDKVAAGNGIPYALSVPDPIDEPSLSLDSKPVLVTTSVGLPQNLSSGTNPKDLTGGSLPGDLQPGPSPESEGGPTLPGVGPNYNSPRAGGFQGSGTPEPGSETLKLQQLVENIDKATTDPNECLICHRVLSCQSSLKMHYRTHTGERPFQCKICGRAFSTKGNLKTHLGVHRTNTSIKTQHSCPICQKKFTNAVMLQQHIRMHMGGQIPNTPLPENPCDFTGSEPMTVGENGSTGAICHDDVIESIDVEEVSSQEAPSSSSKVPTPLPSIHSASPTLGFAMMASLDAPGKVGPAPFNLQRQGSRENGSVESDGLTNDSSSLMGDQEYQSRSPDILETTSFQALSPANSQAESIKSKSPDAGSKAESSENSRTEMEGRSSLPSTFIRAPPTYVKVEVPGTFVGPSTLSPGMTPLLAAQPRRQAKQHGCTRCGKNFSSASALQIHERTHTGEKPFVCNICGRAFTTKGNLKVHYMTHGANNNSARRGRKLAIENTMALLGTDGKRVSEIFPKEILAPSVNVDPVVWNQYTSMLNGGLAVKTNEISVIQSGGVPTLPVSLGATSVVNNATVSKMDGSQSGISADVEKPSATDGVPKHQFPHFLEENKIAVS
# Method: universal PBM
# Molecule type: double-stranded DNA, one strand shown
# Sample: in vitro
# Concentration: 600 nM
# Notes: 8-mer, flanks averaged, mean of replicates
# Direction: higher = stronger binding
Sequence,E-score
GGGGGTTA,-0.172
ACGATGAG,0.11
GGGTAGTA,-0.0885
AGCAGGAC,-0.202
CGCACCAA,-0.201
GAAGTGGC,-0.157
CAACCCAA,-0.00186
AATCGTAA,0.289
GCGTCGTA,0.062

# Series 2
# Target: CCNF, cyclin fold, Cln2 fusion (human)
# Method: yeast growth competition, sequencing
# Sample: yeast
# Notes: strong parent motif
# Reference: not given
# Direction: higher = stronger binding
# Parent: WEE1 docking peptide (human); HKTFRKLRLFDTP
Variant,normalised enrichment score
T12V,2.9
L7N,1.29
F10Q,0.81
P13W,2.1
R8W,3.94
R8G,1.91
F10Y,1.66
H1Q,2.21
L9S,1.48

# Series 3
# Target: RING finger protein unkempt homolog, zinc fingers 1-6, GST-SBP tag (UNK, Homo sapiens, UniProt Q9C0B0, residues 30-357)
# Method: RNA Bind-n-Seq
# Molecule type: RNA
# Sample: in vitro
# Concentration: not given
# Notes: RNA with constant flanks, human and mouse sites, ends assumed
# Reference: input RNA pool
# Direction: higher = stronger binding
# Constant ends, left off below: GGGAGUUCUACAGUCCGACGAUC … CAACAGAGGAUUGAGCAUCA
# Residues (chain): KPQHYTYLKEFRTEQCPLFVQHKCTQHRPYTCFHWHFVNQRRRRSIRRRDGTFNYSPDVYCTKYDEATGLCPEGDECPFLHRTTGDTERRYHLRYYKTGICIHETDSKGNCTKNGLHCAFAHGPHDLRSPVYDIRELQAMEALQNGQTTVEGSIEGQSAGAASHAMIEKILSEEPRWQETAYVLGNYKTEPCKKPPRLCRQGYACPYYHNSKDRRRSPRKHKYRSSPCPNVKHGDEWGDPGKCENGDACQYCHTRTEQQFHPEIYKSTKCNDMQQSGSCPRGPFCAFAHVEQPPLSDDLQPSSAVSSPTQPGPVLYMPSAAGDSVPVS
Sequence,bound/input enrichment
UAUAGAAAUGCAUAUACAAUGGUUUUGCAUAAACAUGGAGAAAAGCUCUACACUGGACUAAGAGAAGUUGUUACUGAACAUCUCAUAAAUAAGGUGCGAGAAGAUGUACUAAAUUCAUUG,0.128 ratio
GGUAAGCGUCGCAACAAGACGCACACGCUGUGCCGCCGCUGUGGCUCCAAGGCCUACCACCUUCAGAAGUCGACUUGUGGCAAGUGUGGCUACCCUGCCAAGCGCAAGAGGAAGUAUAAC,0.068 ratio
AAACAGAGCCUGGAUGUGCUAGAUCUCUGUGAGGGUGACCUGUCCCCAGGACUCACAGACUCUACGGCCCCCUCCUCAGAGUUGGGCAAGGACGACCUGGAAGAGUUGGCUGCAGCUGCC,0.128 ratio
GGUACUAAUGCAUCUGCAUUUGACCAGCUUAUCCUUACAUUGGCAUGGGAUAGAGUUGACAUUGCCAAAAAUCAUGUAUUUGUUUAUGGACAGCAGUGGCUGGUUGGAUCCUUGGAACAA,0.2 ratio
AACAAAAUGAUGUACAUGACUGUGAAUUUUUAUACCGCUCAUUUUUUAAAGGGCUGCCUUUUUAAUUUCCCAUAGUGUUGUGGCGUGAACAGGGCAGAACCUUCUUUUGUAAAACACAAC,0.158 ratio
CUUAUGUAUCUACUAGCAUAUCCACAAAAGCCCAUGGUUAAAACAAAAACAAUCGAGUUGAUAGAUUUUGAGAAGUUGCCGGCUGGCCAGAACGCAACUGUUGCCGUGAUGAGCUACAGC,0.658 ratio
GUGCACACGGGCGAGCGGCCCCACCAGUGCCCCGAGUGCGGGAAGCGCUUUACCAAUAAGCCCUAUCUGACUUCGCACCGGCGCAUCCACACCGGCGAGAAGCCCUACCCGUGCAAAGAG,0.102 ratio
AAGAAGAGAAGGAAGAUGAAAUCUCAUUAGAAGAUCUAAUUGAAAGAGAGCGUUCUGCCCUAGGUCCAAAUGUUACCAAAAUCACUCUAGAGUCUUUUCUCGCGUGGAAGAAGAGGAAAA,3.88 ratio

# Series 4
# Molecule: PhoQ, residues 284 288 289 292 302 303 SSTLLI
# Method: Sort-seq
# Refers to: YFP reporter
# Sample: E. coli
# Notes: PhoQ-PhoP variant library
# Together with: 10 µM Mg2+
# Reference: high Mg2+ state
# Direction: higher = stronger signaling
target,fold induction
"PhoP, residues 12 14 15 18 19 QYFSL (Escherichia coli, UniProt P23836)",11.9
"PhoP, residues 12 14 15 18 19 NYFRM (Escherichia coli, UniProt P23836)",6.91
"PhoP, residues 12 14 15 18 19 TQALL (Escherichia coli, UniProt P23836)",14.7

# A few entries again (series 1):
Sequence,E-score
CGCACCAA,-0.201
GAAGTGGC,-0.157
CAACCCAA,-0.00186
